{"data": "Measurements of several laboratories", "note": "Numbered parts are unrelated; each lists some results of a single study.", "chain of UniProt P53779 (whole entry, looked up)": "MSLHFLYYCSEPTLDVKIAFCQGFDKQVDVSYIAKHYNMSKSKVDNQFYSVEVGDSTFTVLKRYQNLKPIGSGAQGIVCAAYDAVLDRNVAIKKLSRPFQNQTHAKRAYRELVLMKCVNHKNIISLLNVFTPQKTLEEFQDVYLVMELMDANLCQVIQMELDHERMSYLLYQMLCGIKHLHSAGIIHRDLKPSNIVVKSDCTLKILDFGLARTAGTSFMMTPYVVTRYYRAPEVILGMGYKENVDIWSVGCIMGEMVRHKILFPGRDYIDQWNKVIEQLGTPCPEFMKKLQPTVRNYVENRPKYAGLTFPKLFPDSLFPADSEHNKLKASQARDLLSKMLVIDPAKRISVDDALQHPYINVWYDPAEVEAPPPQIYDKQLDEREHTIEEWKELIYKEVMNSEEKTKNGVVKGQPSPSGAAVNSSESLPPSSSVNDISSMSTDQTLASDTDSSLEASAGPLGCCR", "chain of UniProt P0C1S8 (whole entry, looked up)": "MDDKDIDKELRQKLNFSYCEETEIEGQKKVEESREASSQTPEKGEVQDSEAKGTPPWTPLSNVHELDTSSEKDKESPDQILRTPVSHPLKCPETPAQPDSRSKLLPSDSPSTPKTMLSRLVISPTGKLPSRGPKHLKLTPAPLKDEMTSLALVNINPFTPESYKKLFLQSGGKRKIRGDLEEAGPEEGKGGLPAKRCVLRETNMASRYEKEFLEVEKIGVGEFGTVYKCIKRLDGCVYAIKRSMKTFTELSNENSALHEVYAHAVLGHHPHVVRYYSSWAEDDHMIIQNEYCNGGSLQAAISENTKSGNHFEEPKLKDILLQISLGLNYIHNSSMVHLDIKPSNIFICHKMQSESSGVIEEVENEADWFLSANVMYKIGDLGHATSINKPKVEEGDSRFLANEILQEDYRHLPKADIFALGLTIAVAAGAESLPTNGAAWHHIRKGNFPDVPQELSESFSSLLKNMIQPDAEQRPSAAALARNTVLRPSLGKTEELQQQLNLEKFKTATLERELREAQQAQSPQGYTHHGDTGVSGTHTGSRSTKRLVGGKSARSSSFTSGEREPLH", "chain of UniProt P27361 (whole entry, looked up)": "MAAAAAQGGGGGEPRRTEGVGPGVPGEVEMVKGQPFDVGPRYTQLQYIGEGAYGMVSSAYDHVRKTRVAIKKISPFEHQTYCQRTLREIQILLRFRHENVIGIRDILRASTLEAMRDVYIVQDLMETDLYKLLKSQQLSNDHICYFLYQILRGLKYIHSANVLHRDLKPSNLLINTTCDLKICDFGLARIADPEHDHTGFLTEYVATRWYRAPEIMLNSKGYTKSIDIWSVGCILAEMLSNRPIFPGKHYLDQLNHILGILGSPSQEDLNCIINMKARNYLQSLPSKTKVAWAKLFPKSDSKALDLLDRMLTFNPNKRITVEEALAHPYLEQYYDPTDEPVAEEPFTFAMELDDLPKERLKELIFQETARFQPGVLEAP", "chain of UniProt Q16288 (whole entry, looked up)": "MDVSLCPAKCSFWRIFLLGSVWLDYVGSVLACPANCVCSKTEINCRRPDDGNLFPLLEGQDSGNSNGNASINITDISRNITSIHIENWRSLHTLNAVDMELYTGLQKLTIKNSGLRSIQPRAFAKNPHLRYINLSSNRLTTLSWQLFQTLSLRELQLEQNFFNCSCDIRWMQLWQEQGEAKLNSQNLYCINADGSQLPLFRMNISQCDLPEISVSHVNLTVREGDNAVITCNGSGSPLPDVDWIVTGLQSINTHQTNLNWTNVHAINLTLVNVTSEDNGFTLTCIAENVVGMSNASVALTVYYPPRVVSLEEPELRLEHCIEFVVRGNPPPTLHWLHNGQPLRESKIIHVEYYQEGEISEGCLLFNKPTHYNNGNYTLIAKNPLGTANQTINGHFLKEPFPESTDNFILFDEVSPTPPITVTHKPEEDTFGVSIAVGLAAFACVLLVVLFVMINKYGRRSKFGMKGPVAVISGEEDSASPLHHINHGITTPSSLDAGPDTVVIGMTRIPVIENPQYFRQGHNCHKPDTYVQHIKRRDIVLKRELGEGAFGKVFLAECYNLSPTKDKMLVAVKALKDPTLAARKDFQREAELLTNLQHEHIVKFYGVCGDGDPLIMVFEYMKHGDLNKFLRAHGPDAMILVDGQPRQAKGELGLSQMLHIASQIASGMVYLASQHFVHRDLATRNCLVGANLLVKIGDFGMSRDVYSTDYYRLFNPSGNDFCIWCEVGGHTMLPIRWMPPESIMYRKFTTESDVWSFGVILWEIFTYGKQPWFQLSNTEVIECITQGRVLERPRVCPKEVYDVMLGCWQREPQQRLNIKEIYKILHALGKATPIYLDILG", "chain of UniProt Q00536 (whole entry, looked up)": "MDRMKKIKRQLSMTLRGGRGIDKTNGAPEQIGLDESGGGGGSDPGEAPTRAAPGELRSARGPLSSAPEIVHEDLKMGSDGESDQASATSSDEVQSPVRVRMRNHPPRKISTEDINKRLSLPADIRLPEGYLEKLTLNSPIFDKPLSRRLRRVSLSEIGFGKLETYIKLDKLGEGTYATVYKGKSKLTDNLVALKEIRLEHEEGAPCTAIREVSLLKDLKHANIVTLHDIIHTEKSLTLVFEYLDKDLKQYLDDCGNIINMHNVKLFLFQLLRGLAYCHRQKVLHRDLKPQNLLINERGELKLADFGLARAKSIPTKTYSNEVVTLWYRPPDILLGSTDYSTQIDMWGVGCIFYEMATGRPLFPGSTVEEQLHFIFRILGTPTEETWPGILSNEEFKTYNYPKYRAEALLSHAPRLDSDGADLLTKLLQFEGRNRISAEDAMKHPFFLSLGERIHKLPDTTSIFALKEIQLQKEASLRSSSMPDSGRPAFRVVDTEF", "chain of UniProt O75116 (whole entry, looked up)": "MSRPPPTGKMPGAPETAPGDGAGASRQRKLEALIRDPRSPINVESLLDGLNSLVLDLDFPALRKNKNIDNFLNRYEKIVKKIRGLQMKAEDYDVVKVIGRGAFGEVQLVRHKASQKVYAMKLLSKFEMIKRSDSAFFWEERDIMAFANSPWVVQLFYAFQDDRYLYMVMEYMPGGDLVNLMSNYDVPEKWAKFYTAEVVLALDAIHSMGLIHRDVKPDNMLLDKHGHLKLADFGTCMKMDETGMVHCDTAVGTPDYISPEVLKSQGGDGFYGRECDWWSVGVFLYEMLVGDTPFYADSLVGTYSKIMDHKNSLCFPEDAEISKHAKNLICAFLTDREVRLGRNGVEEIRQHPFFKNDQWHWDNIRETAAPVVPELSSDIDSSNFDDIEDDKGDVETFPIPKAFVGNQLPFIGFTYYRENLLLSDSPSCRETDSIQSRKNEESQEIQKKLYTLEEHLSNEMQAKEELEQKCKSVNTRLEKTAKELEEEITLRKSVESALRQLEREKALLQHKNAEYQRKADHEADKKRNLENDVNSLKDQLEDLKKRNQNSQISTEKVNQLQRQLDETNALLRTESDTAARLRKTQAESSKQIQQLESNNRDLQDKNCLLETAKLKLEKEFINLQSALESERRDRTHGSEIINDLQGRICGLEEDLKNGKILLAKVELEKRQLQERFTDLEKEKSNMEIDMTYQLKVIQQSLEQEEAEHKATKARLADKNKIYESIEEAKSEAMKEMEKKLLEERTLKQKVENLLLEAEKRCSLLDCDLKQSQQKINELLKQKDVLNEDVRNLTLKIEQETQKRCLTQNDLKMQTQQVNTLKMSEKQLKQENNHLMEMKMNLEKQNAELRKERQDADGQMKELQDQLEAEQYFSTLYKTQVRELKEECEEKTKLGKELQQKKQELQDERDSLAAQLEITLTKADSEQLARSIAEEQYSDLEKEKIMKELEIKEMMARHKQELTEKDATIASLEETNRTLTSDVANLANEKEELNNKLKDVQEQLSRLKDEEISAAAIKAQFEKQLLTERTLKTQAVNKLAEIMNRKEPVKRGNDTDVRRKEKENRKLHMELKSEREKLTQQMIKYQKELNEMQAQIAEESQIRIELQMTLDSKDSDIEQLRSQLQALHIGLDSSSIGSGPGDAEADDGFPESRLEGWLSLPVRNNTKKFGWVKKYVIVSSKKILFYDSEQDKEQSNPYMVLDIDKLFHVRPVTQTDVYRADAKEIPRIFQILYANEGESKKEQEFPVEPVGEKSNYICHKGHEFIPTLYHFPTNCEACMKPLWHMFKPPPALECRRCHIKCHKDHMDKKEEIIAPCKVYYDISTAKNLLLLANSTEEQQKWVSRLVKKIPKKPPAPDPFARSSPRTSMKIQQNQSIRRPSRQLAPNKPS", "chain of UniProt Q00532 (whole entry, looked up)": "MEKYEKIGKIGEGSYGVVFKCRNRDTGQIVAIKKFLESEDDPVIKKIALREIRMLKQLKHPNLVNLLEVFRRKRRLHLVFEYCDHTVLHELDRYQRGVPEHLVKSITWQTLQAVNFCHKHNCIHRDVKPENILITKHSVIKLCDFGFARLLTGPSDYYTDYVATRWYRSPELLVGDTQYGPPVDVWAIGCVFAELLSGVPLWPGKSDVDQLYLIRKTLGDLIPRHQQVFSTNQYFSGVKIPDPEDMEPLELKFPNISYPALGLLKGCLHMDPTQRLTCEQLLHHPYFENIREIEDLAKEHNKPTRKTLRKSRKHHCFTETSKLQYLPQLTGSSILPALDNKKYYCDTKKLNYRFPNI"}
{"data": "Sample 1", "Structure (SMILES)": "CCCOc1ccc([C@@H]2[C@@H](C(=O)O)[C@H](c3ccc4c(c3)OCO4)CN2CC(=O)Nc2c(CC)cccc2CC)cc1", "observed": "cell-free assay", "method": "competition with immobilised ligand", "concentration": "1 µM"}
{"target": "NEK11 (Homo sapiens, UniProt Q8NG66)", "remaining binding": "81%"}
{"target": "Tyrosine-protein kinase ABL1, non-phosphorylated (ABL1, Homo sapiens, UniProt P00519, Q252H)", "remaining binding": "92%"}
{"target": "PDPK1 (Homo sapiens, UniProt O15530)", "remaining binding": "100%"}
{"target": "EGFR (Homo sapiens, UniProt P00533, G719S)", "remaining binding": "100%"}
{"target": "MAPK3 (Homo sapiens, UniProt P27361)", "remaining binding": "93%"}
{"target": "CDKL1 (Homo sapiens, UniProt Q00532)", "remaining binding": "77%"}
{"target": "EPHA3 (Homo sapiens, UniProt P29320)", "remaining binding": "99%"}
{"target": "MAPK10 (Homo sapiens, UniProt P53779)", "remaining binding": "95%"}
{"target": "STK32C (Homo sapiens, UniProt Q86UX6)", "remaining binding": "100%"}
{"target": "TNIK (Homo sapiens, UniProt Q9UKE5)", "remaining binding": "100%"}
{"target": "WEE2 (Homo sapiens, UniProt P0C1S8)", "remaining binding": "87%"}
{"target": "CDK16 (Homo sapiens, UniProt Q00536)", "remaining binding": "89%"}
{"data": "Sample 2", "SMILES": "CSc1nc(-c2ccnc(N[C@@H](C)c3ccccc3)c2)c(-c2ccc(F)cc2)[nH]1 (racemic)", "observed": "enzyme activity", "mode": "inhibitor", "concentration": "0.5 µM", "relative to": "control"}
{"target": "CAMK1G (Homo sapiens, UniProt Q96NX5)", "remaining activity [%]": 98.3}
{"target": "MAP3K8 (Homo sapiens, UniProt P41279)", "remaining activity [%]": 88.6}
{"target": "CDK7 (Homo sapiens, UniProt P50613)", "remaining activity [%]": 97.2}
{"target": "PTK2B (Homo sapiens, UniProt Q14289)", "remaining activity [%]": 100}
{"target": "EGFR (Homo sapiens, UniProt P00533)", "remaining activity [%]": 87.1}
{"target": "DYRK4 (Homo sapiens, UniProt Q9NR20)", "remaining activity [%]": 91.4}
{"target": "MAP3K2 (Homo sapiens, UniProt Q9Y2U5)", "remaining activity [%]": 101}
{"target": "SLK (Homo sapiens, UniProt Q9H2G2)", "remaining activity [%]": 104}
{"target": "Cyclin-dependent kinase 2, with cyclin A (CDK2, Homo sapiens, UniProt P24941)", "remaining activity [%]": 96.8}
{"target": "CSNK2A2 (Homo sapiens, UniProt P19784)", "remaining activity [%]": 88.8}
{"target": "CAMK1D (Homo sapiens, UniProt Q8IU85)", "remaining activity [%]": 91.7}
{"target": "PKN2 (Homo sapiens, UniProt Q16513)", "remaining activity [%]": 76.1}
{"target": "DMPK (Homo sapiens, UniProt Q09013)", "remaining activity [%]": 80}
{"target": "NTRK3 (Homo sapiens, UniProt Q16288)", "remaining activity [%]": 93.6}
{"target": "MAPK10 (Homo sapiens, UniProt P53779)", "remaining activity [%]": 125}
{"target": "ROS1 (Homo sapiens, UniProt P08922)", "remaining activity [%]": 99.1}
{"target": "HIPK3 (Homo sapiens, UniProt Q9H422)", "remaining activity [%]": 101}
{"target": "ROCK2 (Homo sapiens, UniProt O75116)", "remaining activity [%]": 95.3}
{"data": "Sample 3", "target": "ATP-dependent RNA helicase DDX3X, helicase core (DDX3X, Homo sapiens, UniProt O00571, residues 132-607)", "method": "RNA Bind-n-Seq", "molecule type": "RNA", "medium": "in vitro", "concentration": "90 pmol", "notes": "4-mer, random 30-nt RNA, single round", "together with": "3 µM iPr-DMDA-PatA, 2 mM ADP, 2 mM phosphate", "relative to": "input library", "direction": "higher = stronger binding", "chain of UniProt O00571 (132-607, looked up)": "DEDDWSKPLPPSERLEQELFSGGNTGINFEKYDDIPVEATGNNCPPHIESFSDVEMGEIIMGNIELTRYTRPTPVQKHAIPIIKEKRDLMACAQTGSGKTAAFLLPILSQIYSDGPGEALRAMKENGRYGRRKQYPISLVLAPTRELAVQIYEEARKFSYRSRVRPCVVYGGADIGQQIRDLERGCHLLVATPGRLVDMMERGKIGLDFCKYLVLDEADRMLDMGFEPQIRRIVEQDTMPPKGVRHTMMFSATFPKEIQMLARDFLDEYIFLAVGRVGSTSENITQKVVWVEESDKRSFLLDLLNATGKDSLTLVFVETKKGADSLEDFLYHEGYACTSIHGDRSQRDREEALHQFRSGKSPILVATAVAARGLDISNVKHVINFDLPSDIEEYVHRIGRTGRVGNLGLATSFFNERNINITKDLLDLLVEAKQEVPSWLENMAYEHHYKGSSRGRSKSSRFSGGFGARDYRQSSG"}
{"Sequence": "UGCG", "4-mer enrichment": "0.746 fold"}
{"Sequence": "UGCA", "4-mer enrichment": "0.824 fold"}
{"Sequence": "AUCU", "4-mer enrichment": "0.973 fold"}
{"Sequence": "UAGA", "4-mer enrichment": "1.35 fold"}
{"Sequence": "AUGG", "4-mer enrichment": "0.921 fold"}
{"Sequence": "GUCA", "4-mer enrichment": "0.944 fold"}
{"Sequence": "CUGA", "4-mer enrichment": "0.955 fold"}
{"Sequence": "AAUC", "4-mer enrichment": "1.18 fold"}
{"data": "Other studies, line by line"}
{"Compound": "CC(C)n1cnc(-c2ccc(F)cc2)c1-c1ncc(C(=O)Nc2ccc(N3CCN(C)CC3)cc2)[nH]1", "test": "item: endocrine disorders", "system": "human, idiopathic pulmonary fibrosis", "setting": "dose not given, trial, all arms pooled", "endpoint": "treatment-emergent AE", "value": "0%"}
